# Assay results pooled from the literature.
# Each numbered part is a random draw from the data of one study; scales do not carry over between parts. Changes are numbered by the printed parent chain.

# Sample 1
# Target: ABI1, truncated, D143A, DHFR fusion (Arabidopsis thaliana)
# Technique: DHFR PCA, deep sequencing
# Matrix: yeast
# Setting: methotrexate growth selection, single substitutions
# Added: (+)-ABA 0.11 µM
# Reference: wild-type fitted maximum
# Reading: higher = stronger binding
# Starting sequence: PYL1, truncated, DHFR fusion (Arabidopsis thaliana); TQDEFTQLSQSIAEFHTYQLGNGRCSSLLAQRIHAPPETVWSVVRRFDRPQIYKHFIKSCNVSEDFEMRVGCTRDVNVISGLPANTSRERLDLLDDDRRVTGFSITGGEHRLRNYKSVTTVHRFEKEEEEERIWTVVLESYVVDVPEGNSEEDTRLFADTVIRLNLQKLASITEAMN
Variant,relative binding score [%]
T160W,0.0468
I162M,11.2
T135W,-4.7
T39I,53.3
E174P,3.35
S11C,34.6
A158I,64.3
L164W,12.6
R45A,-4.96
L29P,5.02
N177I,27.7
S104K,1.61
D96T,-10.5
E174V,6.02
F66V,0.64

# Sample 2
# Target: RING finger protein unkempt homolog, zinc fingers 1-6, GST-SBP tag (UNK, Homo sapiens, UniProt Q9C0B0, residues 30-357)
# UniProt Q9C0B0, sequence (30-357, looked up): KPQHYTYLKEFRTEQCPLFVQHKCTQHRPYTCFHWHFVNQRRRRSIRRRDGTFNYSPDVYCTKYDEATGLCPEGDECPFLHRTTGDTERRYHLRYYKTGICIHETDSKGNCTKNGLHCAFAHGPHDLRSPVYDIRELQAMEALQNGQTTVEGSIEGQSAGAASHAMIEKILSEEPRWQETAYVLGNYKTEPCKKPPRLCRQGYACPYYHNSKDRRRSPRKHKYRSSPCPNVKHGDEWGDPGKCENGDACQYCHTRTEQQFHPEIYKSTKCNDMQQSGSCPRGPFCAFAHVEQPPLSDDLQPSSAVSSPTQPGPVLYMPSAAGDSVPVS
# Technique: RNA Bind-n-Seq
# Form: RNA
# Matrix: in vitro
# Concentration: not given
# Setting: RNA with constant flanks, human and mouse sites, ends assumed
# Reference: input RNA pool
# Reading: higher = stronger binding
# Shared flanks, not repeated: GGGAGUUCUACAGUCCGACGAUC … CAACAGAGGAUUGAGCAUCA
Oligonucleotide,bound/input enrichment [ratio]
UUAUACCAAGUGGAGUAUGCCAUGGAAGCCAUUGGACAUGCAGGCACCUGUUUGGGGAUUUUAGCCAAUGAUGGAGUUUUGCUUGCAGCGGAGAGGCGCAACAUCCACAAGCUUCUUGAU,0.258
GAUGGAUUUUACUUUUCAACAACAUAUGAUUUGACCCAUACUUUGCAGCGGCUAUCCAACACUAGUCCUGAAUUCCAAGAAAUGAGUCUCUUGGAAAGGGCAGAUCAGCGGUUUGUAUGG,0.253
AGACACAAAGCAGCCACCAAAGGCUCAAGGAAACCCAAUAUAAAGAAGGAGUCUAAGUCUUCCCCUCGACCUACAGCAGAGAAAAAGAAAUAUAAGUCAACAAGUAAAUCUUCCCAGAAA,0.355
GACCAAACCCAGAACUUUUUUUUUUUUUUUUUUGGUUUUUCAAGACAAGAUUUCUCUGUGUAGCUCUGGCUGUCCUGGAACCCACUGUGUAUAUGACUAGGCUGAACUCCAACUCAGAGA,1.95
UGGUCUCCCCAGGCAAGAAGGUAUCCUCUUCCCAAGGUGUACCCACUGAAUGUUGUUACUACAUAUUGAGAGUCAUUUUAUGCAUAUGCAUUCUACCUUUCCUGCUUUAUGAGUAUUUUU,0.31
GACUACCAGGCUGCUGGCGAUGAUGAGAUCUCCUUUGACCCUGAUGACAUCAUCACCAACAUAGAAAUGAUUGACGAUGGCUGGUGGCGUGGGGUGUGCAAGGGCAGAUACGGGCUCUUC,0.266
AGAGACUGGGUCACAAACCCUGGGCUUUUCAAUCAGCCACUGACUUCCCUUCCUGUCAGUAGCAUACCCAUCUAUAAAUUACCAGAGGGAUCACCAACAUGGCUGGGAAUAUCCUGCAGU,0.436
CAUGUAGGAGCAAAGGCUGUCAUGUCUGUUGUGAGGGACCUGCUGACUAGGCUCUCUGGAACUAGGGCCGCCUGGCCCCUGGCAUUCUGAGGGGUGUGUGCUGCAGAGAGCAUUCAUUGU,0.255

# Sample 3
# Target: Sal-like protein 4, full length isoform B (SALL4, Homo sapiens, UniProt Q9UJQ4-2, residues 1-616)
# Technique: universal PBM
# Form: double-stranded DNA, one strand shown
# Matrix: in vitro
# Concentration: not given
# Setting: 8-mer, flanks averaged, mean of replicates
# Reading: higher = stronger binding
# Target sequence (chain): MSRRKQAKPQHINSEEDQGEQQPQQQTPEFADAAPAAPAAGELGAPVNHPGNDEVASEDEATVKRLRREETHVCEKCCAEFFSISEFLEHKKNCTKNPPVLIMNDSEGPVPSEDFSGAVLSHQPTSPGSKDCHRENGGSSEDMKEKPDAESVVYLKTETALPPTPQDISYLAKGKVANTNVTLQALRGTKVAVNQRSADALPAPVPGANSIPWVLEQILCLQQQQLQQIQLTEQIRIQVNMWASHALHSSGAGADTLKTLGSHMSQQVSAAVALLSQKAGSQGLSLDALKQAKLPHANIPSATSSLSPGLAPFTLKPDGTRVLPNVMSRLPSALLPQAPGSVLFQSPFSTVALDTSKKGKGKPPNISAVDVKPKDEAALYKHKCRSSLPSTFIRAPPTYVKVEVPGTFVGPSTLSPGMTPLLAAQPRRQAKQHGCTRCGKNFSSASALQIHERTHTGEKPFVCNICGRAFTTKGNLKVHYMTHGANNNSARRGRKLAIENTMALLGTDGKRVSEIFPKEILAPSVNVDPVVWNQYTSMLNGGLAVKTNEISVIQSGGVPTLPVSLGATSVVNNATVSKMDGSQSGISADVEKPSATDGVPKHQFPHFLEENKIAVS
Oligonucleotide,E-score
ACGATTTC,0.186
ATGCAGAC,0.00551
AAGAACTT,0.0764
GATGGCTA,0.0692
AATTCGCA,0.0556
ACGGTCCC,-0.337
ACTGATAA,0.3
GACTTGAA,0.0232
TGATTAAA,0.302
ACGGCATA,0.0999
CACCGAGG,-0.281
ACACTTAT,0.225
CCTCGAGA,-0.12
ACTTCTCA,0.0517
ATTGTCTG,0.189
GCTGTACA,-0.00563
AGTCTAAC,-0.0673
AGGCGTAT,0.191
CCGTTTGA,-0.216
GAACTCGA,-0.142
CCCCCGTC,-0.224
ACTGTATG,0.191
AGCCCAAG,-0.0876

# Sample 4
# Target: Histone acetyltransferase KAT6A, both winged helices, GST fusion (KAT6A, Homo sapiens, UniProt Q92794, residues 1-181)
# Technique: protein binding microarray
# Form: double-stranded DNA, one strand shown
# Matrix: in vitro
# Concentration: not given
# Setting: 8-mer, flanks averaged, mean of 2 arrays, mostly near background
# Reference: not given
# Reading: higher = stronger binding
# Construct (chain): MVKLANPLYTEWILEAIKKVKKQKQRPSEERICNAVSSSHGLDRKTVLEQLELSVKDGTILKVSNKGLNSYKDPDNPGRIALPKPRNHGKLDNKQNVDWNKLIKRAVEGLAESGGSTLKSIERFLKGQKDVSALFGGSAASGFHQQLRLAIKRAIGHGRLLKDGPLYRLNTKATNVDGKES
Oligonucleotide,E-score
AGTCCAGA,-0.198
GGCGCACC,0.121
ACTCTCTA,-0.276
CCCGCGCC,0.287
AAAATAAT,-0.0755
AGAGTGAC,-0.123
CCCGTCAG,0.16
GGGTCAAC,-0.108
CGGAGCTC,0.078
ACCTTAAG,-0.0366
AGACAGTC,0.106
AGGAGCAA,-0.236
CTACCGAC,0.0923
ACTACCGC,0.227

# Sample 5
# Target: Interferon regulatory factor 3, full length, phosphomimetic (IRF3, Homo sapiens, UniProt Q14653, residues 1-427, S386D/S396D/S398D/S402D/T404D/S405D)
# UniProt Q14653, sequence (whole entry, unmodified, looked up): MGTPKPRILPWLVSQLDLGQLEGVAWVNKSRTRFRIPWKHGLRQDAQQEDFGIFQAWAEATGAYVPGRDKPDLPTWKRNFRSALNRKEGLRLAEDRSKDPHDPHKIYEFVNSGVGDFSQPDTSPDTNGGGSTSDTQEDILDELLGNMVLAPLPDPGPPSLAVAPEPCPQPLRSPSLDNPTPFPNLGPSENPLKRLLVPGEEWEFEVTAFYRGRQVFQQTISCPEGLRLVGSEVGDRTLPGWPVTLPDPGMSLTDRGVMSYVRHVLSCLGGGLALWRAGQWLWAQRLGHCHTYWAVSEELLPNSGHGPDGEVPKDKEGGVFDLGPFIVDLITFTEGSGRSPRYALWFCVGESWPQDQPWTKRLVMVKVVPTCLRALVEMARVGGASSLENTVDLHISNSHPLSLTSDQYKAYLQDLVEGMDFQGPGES
# Technique: protein-binding microarray
# Form: double-stranded DNA, one strand shown
# Matrix: in vitro
# Concentration: 2540 nM top
# Setting: 60-bp whole probe
# Added: salmon DNA 0.4 mg/ml
# Reference: random background probes
# Reading: higher = stronger binding
# Shared flanks, not repeated: GCCTAGCAC … GTCTTGATTCGCTTGACGCTGCTG
Oligonucleotide,fitted relative affinity [z-score]
TCACATCTCAAGTAGCCTACTGTGCTA,1.01
GAGGGTCTCGGTTTCGGGACGTGCTAG,3.07
GACGTACTGGACTATCGGGACGTGCTA,-0.221
TTAGGATCCCTTTTCCTTTAGTGCTAG,7.38
CTTTCTATCTCTGTTTTTGCGTGCTAG,5.42
GACGATATCAGACTCGAGACGTGCTAG,0.836
TTAGGACTGCCTATCCTTTAGTGCTAG,-0.152
GACGATACCAGTATCGAGACGTGCTAG,0.645
GAGGGTTTCGGGTATCGGGACGTGCTA,2.95
TCAGTTTTCATTTTATGACTGTGCTAG,5.09
GACCGTATCGGTTTCGGGACGTGCTAG,7.47
TTTATTTATTTATTTATTTAGTGCTAG,1.03
TTAGCACTGGGGTTTCGGTTAGTGCTA,2.37
GACGGTATCCTACTGCTGACGTGCTAG,2.68
TTAGGACTGGACTAACGGTTAGTGCTA,-0.62
GACGGTATCGGTATCGGGGCGTGCTAG,4.38
TTAAGTTTCCTTTCCCTTTAGTGCTAG,11.8
TCTCTGCTACCCTTTGAAAGTGTGCTA,0.129
GACGATATCAGGTTCGAGACGTGCTAG,0.603

# A few entries again (sample 4):
Oligonucleotide,E-score
AGGAGCAA,-0.236
GGCGCACC,0.121
AGAGTGAC,-0.123
GGGTCAAC,-0.108
AGTCCAGA,-0.198
